Earlier results as cited in several papers.
Protocols differ between the studies behind these lines. Numbers after ± are the reported error.
Sequence of UniProt Q9P289 (whole entry, looked up): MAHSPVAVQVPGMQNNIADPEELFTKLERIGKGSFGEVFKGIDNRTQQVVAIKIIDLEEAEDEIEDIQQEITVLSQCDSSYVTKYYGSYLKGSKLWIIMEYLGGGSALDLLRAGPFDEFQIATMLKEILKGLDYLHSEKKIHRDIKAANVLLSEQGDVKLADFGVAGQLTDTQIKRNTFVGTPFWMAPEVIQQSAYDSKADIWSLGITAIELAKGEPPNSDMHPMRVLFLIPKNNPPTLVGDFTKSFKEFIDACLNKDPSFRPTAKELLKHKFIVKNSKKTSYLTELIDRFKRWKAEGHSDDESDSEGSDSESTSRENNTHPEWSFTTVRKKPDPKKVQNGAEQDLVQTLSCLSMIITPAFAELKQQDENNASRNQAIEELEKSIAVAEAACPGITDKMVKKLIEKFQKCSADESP

CCO[C@H]1CCN(Cc2c(OC)cc(C)c3[nH]ccc23)[C@H](c2ccc(C(=O)O)cc2)C1
patients reaching LDH reduction endpoint (patients with PNH; dose not given, 12 weeks; baseline: patients): ≥ 60%

COC[C@@H](c1ccc(C(F)(F)F)cc1)N1CCN(C2(C)CCN(C(=O)c3c(C)ncnc3C)CC2)C[C@@H]1C
HIV RNA reduction (treatment-naive HIV patients; 25 mg twice daily, day 14, monotherapy without ritonavir): 1.56 log copies/mL

C=C1C[C@@H]2[C@H](CC[C@]3(C)C(=O)CC[C@@H]23)[C@@]2(C)C=CC(=O)C=C12
invasive breast cancer incidence reduction (human; dose not given, long-term use annual rate): 65%

Cc1ccc(Nc2nccc(N(C)c3ccc4c(C)n(C)nc4c3)n2)cc1S(N)(=O)=O
overall response rate (human epithelioid sarcoma patients; dose not given): 0 to 22%

COc1ccccc1[C@H](Cn1c(=O)n(C(C)(C)C(=O)O)c(=O)c2c(C)c(-c3ncco3)sc21)OC1CCOCC1
EDmax (hepatic de novo lipogenesis; rat; maximal inhibition): 3 mg/kg

Nc1cc(C(F)(F)F)c(-c2nc(N3CCOCC3)nc(N3CCOCC3)n2)cn1
remaining activity (STK26 (Homo sapiens, UniProt Q9P289); enzyme activity; 10 µM; baseline: untreated): 56%

CNC[C@H](O)[C@@H](O)[C@H](O)[C@H](O)CO.O=C([O-])CN1CCN(CC(=O)[O-])CCN(CC(=O)O)CCN(CC(=O)[O-])CC1.[Gd+3]
relaxivity r1 (saline; 310 K, 0.47 T): 3.6 mM⁻¹ s⁻¹

C[C@H]1COCCN1c1nc(-c2cnc(N)cc2C(F)F)nc(N2CCOCC2)n1
GI50 (ASPC1): 468 nM

COC(=O)C1=C(C)NC(C)=C(C(=O)OC)C1c1c(C(F)(F)F)nc2sc(C)cn12
inhibition (calcium-induced contraction; guinea pig aortic strip; 50 µM, added: K+ 80 mM depolarisation): 28 ± 1.5%

CCOc1cc(C(C)(C)C)ccc1C1=N[C@@](C)(c2ccc(Cl)cc2)[C@@](C)(c2ccc(Cl)cc2)N1C(=O)N1CCN(CCCS(C)(=O)=O)CC1
complete response rate (human, AML; dose not given, phase Ib, added: cytarabine): 17%

CC1(C)S[C@@H]2[C@H](NC(=O)[C@H](N)c3ccccc3)C(=O)N2[C@H]1C(=O)O
MIC (Klebsiella oxytoca; clinical isolate RKI 52/07): > 16 µg/mL

COc1cc(NC(=O)CCN2CCC(OC(=O)Nc3ccccc3-c3ccccc3)CC2)c(Cl)cc1CNC[C@H](O)c1ccc(O)c2[nH]c(=O)ccc12
placebo-corrected trough FEV1 change (COPD patients; inhaled, 400 µg once daily, 24 h postdose, dosing day 1; baseline: baseline): 146 mL

CN[C@@H](C)C(=O)N[C@H]1CN(S(=O)(=O)c2cccc(S(=O)(=O)N3CC[C@H]4CC[C@@H](C(=O)NC(c5ccccc5)c5ccccc5)N4C(=O)[C@@H](NC(=O)[C@H](C)NC)C3)c2)CC[C@H]2CC[C@@H](C(=O)NC(c3ccccc3)c3ccccc3)N2C1=O
treatment cycles (human; 45 mg): > 13 cycles

OC[C@H]1O[C@H](O[C@]2(CCl)O[C@H](CCl)[C@@H](O)[C@@H]2O)[C@H](O)[C@@H](O)[C@H]1Cl
relative sweetness (sensory evaluation; human sensory panel, water; baseline: sucrose 5 % w/v): 6

COc1cc2c(Oc3ccc4[nH]c(C)cc4c3F)ccnc2cc1OCC1(N)CC1
reduction in progression risk (metastatic soft tissue sarcoma patients; dose not given; baseline: placebo): 67%

CCc1cc2c(cc1CC)CC(NC[C@H](O)c1ccc(O)c3[nH]c(=O)ccc13)C2
placebo-corrected trough FEV1 change (COPD patients; inhaled, 300 µg once daily, 24 h postdose, dosing day 182; baseline: baseline): 180 mL

CC1(C)CCC(CN2CCN(c3ccc(C(=O)NS(=O)(=O)c4ccc(NCC5CCOCC5)c([N+](=O)[O-])c4)c(Oc4cnc5[nH]ccc5c4)c3)CC2)=C(c2ccc(Cl)cc2)C1
median duration of response (human, AML; dose not given, monotherapy, sample B patients): 48 days

Nc1cc(C(F)(F)F)c(-c2cc(N3CCOCC3)nc(N3CCOCC3)n2)cn1
median progression-free survival (human endometrial cancer patients; dose not given, trial): 4.5 months

CNC(C)C1CCC(N)C(OC2C(N)CC(N)C(OC3OCC(C)(O)C(NC)C3O)C2O)O1 (stereo not drawn)
MIC (Escherichia coli; clinical isolate RKI-No_867/14): ≤ 0.5 µg/mL

COc1cc(/C=C/C(=O)O)ccc1O
effective dose (antioxidant effect; rat CLP sepsis; intraperitoneal): 100 mg/kg

Nc1cccc2c1C(=O)N(C1CCC(=O)NC1=O)C2=O (stereo not drawn)
progression-free survival (relapsed refractory multiple myeloma patients; dose not given, alternate-day dosing): 10.5 months

CCNCCc1ccc(CN(CC)c2cc(OC)ccc2[C@@H]2CCc3cc(O)ccc3C2)cc1
median progression-free survival (human, ER-positive HER2-negative breast cancer, ESR1 mutation; dose not given): 3.65 months

NC(=S)NN=Cc1ncccc1N
complete metabolic response (PET-CT; cervical cancer patients; dose not given, 3 months post-therapy, phase II, added: cisplatin chemoradiation): 96%

Cc1cnc(C)c(C)n1
odour detection threshold (human, water): 23 µg/kg

For quick reference, copied from above:
COc1ccccc1[C@H](Cn1c(=O)n(C(C)(C)C(=O)O)c(=O)c2c(C)c(-c3ncco3)sc21)OC1CCOCC1
EDmax (hepatic de novo lipogenesis; rat; maximal inhibition): 3 mg/kg

Nc1cc(C(F)(F)F)c(-c2nc(N3CCOCC3)nc(N3CCOCC3)n2)cn1
remaining activity (STK26 (Homo sapiens, UniProt Q9P289); enzyme activity; 10 µM; baseline: untreated): 56%

CNC[C@H](O)[C@@H](O)[C@H](O)[C@H](O)CO.O=C([O-])CN1CCN(CC(=O)[O-])CCN(CC(=O)O)CCN(CC(=O)[O-])CC1.[Gd+3]
relaxivity r1 (saline; 310 K, 0.47 T): 3.6 mM⁻¹ s⁻¹

C[C@H]1COCCN1c1nc(-c2cnc(N)cc2C(F)F)nc(N2CCOCC2)n1
GI50 (ASPC1): 468 nM
